Results of several laboratories.
Protocols differ between the studies behind these lines. ± marks the error that the study gave.

CCC(=O)N1CCN(c2ccc(N(C)C(=O)C(C)(C)c3cc(C(F)(F)F)cc(C(F)(F)F)c3)c(-c3ccccc3C)c2)CC1
logD (octanol/acetate buffer; pH 5.0): 5.05

[Br-].c1ccc(-c2nn(-c3ccccn3)[n+](-c3ccccc3)n2)cc1
logD (shake-flask; octanol/PBS; pH 7.4): -0.5

Cc1ccccc1-c1cc(N2CCN(C(=O)CCC(=O)O)CC2)ccc1N(C)C(=O)C(C)(C)c1cc(C(F)(F)F)cc(C(F)(F)F)c1
logD (octanol/acetate buffer; pH 5.0): 4.9

Oc1cccc(-c2cccc(O)n2)n1.[Cl-].[Cl-].[Ru+2].c1cnc2c(c1)c1c(c3cccnc32)OCCO1.c1cnc2c(c1)c1c(c3cccnc32)OCCO1
logD (shake flask; octanol/acetate buffer; pH 5.25): 1.37

[2H]C1([2H])CC[C@@H](C[C@@H](C#N)NC(=O)[C@@H]2[C@@H]3[C@H](CN2C(=O)[C@@H](NC(=O)C(F)F)C(C)(C)C)C3(C)C)C(=O)N1
logD: ~1.5

Cc1cc2c(c(=O)o1)C=C1CCC(C(C)CNCc3ccc(O)cc3)CC1O2 (centres unmarked)
logD (n-octanol/PBS partition; pH 7.4): 1.48

COC(=O)N1c2ccc3c(nc(Cc4ccccc4)n3[C@@H]3CCC[C@@H](C(=O)O)C3)c2CC[C@@H]1C
logD: 2.2

Oc1cccc(-c2cccc(O)n2)n1.[Cl-].[Cl-].[Ru+2].c1cnc2c(c1)ccc1cccnc12.c1cnc2c(c1)ccc1cccnc12
logD (shake flask; octanol/phosphate buffer; pH 5.80): 1.3

NC12CNCCNCC(NCc3ccc(CNC(=O)CCCC(=O)NCc4ccc(-c5nncnn5)cc4)cc3)(CNCCNC1)CNCCNC2.[64Cu+2]
logD (1-octanol/PBS; pH 7.4): -2.08 ± 0.06

C[C@H]1C[C@@H](Oc2cccc(F)n2)CCN1Cc1cnc(N[11C](C)=O)s1
logD (shake flask; 1-octanol/sodium phosphate buffer 0.15 M; pH 7.4): 2.96 ± 0.01

[Br-].c1ccc(-c2nn(-c3nc4ccccc4s3)[n+](-c3ccccc3)n2)cc1
logD (shake-flask; octanol/PBS; pH 7.4): 0.9

CC(=O)OC(CC1CC(=O)NC(=O)C1)C1CC(C)(N=[N+]=[N-])CC(C)C1=O (centres unmarked)
logD (pH 7.4): 1.1

Oc1ccccc1-c1nn(-c2ccccn2)[n+](-c2ccccc2)n1.[Br-]
logD (shake-flask; octanol/PBS; pH 7.4): 0.1

COc1cc2nc(N3CCCCC3)nc(NC3CCN(C)CC3)c2cc1OC
logD (chromatographic; pH 7.4): 3.8

O=C(c1ccc(F)cc1)C1CCN(C2Cc3c(O)cccc3CC2O)CC1 (racemic)
logD (pH 7.4): 1.78

CCCC[P+](CCCC)(CCCC)CCCC.Cc1ccc(S(=O)(=O)[N-]C(=O)NN2CC3CCCC3C2)cc1 (centres unmarked)
logD (shake-flask; n-octanol/PBS; pH 7.4, 37 °C): 0.25 ± 0.02

CC1CCC2C(C)C(=O)OC3C2C1CCC3(C)O (centres unmarked)
logD (pH 7.4): 2.31

Cn1cncn1.[Ru+2].c1cc(-c2ccc3ccccc3n2)nc(-c2ccc3ccccc3n2)c1.c1ccc2cc3nc4c5cccnc5c5ncccc5c4nc3cc2c1
logD (shake-flask): -0.26 ± 0.02

O=C([O-])CN1CCN(CC(=O)NCCCCCNC(=O)CCC(NC(=O)NC(CCC(=O)O)C(=O)O)C(=O)O)CCN(Cc2cccc(C(=O)[O-])n2)CC1.[64Cu+2] (centres unmarked)
logD (shake-flask; 1-octanol/PBS; pH 7.4): -1.19 ± 0.42

CC(=O)O[C@H](CC1CC(=O)NC(=O)C1)[C@@H]1CC(C)C[C@H](C)C1=O (some centres unmarked)
logD (pH 7.4): 1.04

COc1ccc(N2CCOCC2)c2sc(NC(=O)c3ccnc(CN4CCCC4)c3)nc12
logD (CAMDIS; pH 7.4): 1.5

COc1ccc(-c2csc(N/N=C(\C)c3cc(O)cc(O)c3)n2)cc1
logD (1-octanol/phosphate buffer; 1 h, pH 7.4, room temperature): 1.5

CC(=O)N([O-])CCCCCNC(=O)CCC(=O)N([O-])CCCCCNC(=O)CCC(=O)N([O-])CCCCCN.[89Zr+4]
logD (octanol/PBS; pH 7.4): -2.7 ± 6

[2H]C1([2H])CC[C@@H](C[C@@H](C#N)NC(=O)[C@@H]2[C@@H]3[C@H](CN2C(=O)[C@@H](NC(=O)C(F)(F)F)C(C)(C)C)C3(C)C)C(=O)N1
logD: 2.09

O=C(NCCNCCO)c1cn(Cc2ccc(F)cc2)c2cc(Cl)c(OCc3ccc(C(F)(F)F)cc3)cc2c1=O
logD (shake-flask; 1-octanol/PBS; 2 h, pH 7.4): 2.9

O=C(c1ccc(-c2cccc(C(F)(F)F)c2)cc1)N1CCN(c2ncccn2)CC1
logD (pH 7.4): 4.4

A few entries again:
Cn1cncn1.[Ru+2].c1cc(-c2ccc3ccccc3n2)nc(-c2ccc3ccccc3n2)c1.c1ccc2cc3nc4c5cccnc5c5ncccc5c4nc3cc2c1
logD (shake-flask): -0.26 ± 0.02

Cc1cc2c(c(=O)o1)C=C1CCC(C(C)CNCc3ccc(O)cc3)CC1O2 (centres unmarked)
logD (n-octanol/PBS partition; pH 7.4): 1.48

NC12CNCCNCC(NCc3ccc(CNC(=O)CCCC(=O)NCc4ccc(-c5nncnn5)cc4)cc3)(CNCCNC1)CNCCNC2.[64Cu+2]
logD (1-octanol/PBS; pH 7.4): -2.08 ± 0.06

[Br-].c1ccc(-c2nn(-c3nc4ccccc4s3)[n+](-c3ccccc3)n2)cc1
logD (shake-flask; octanol/PBS; pH 7.4): 0.9
